Results gathered from unrelated publications.
Each numbered part is a random draw from the data of one study; scales do not carry over between parts.

Series 1
Target: Interferon regulatory factor 5, full length, phosphomimetic (IRF5, Homo sapiens, UniProt Q13568-2, residues 1-514, S451D/S453D/S456D/S462D)
Method: protein-binding microarray
Form: double-stranded DNA, one strand shown
Matrix: in vitro
Tested at: 940 nM top
Setting: 60-bp whole probe
With: salmon DNA 0.4 mg/ml
Reference: random background probes
Reading: higher = stronger binding
All sequences stand within: GCCTAGCAC … GTCTTGATTCGCTTGACGCTGCTG
Sequence	fitted relative affinity [z-score]
TCTCTTTCCTTACTTCCCAATGTGCTA	3.7
TTAGGTATCGGGATTCGGTTAGTGCTA	4.65
GACGGTATCGGACTGGTGACGTGCTAG	2.56
GACGGTATCCTACTGCTCACGTGCTAG	-0.0547
TTAGATTGCGGGTTTCGATTAGTGCTA	5.96
TTAGGTTTCCTACCGCTTTAGTGCTAG	0.523
CTTTCTTTTTTTCTTTTATTGTGCTAG	2.39
GACGGTCTCCTACTGATGACGTGCTAG	-0.175
GACGATATCAGTTTCGAGGCGTGCTAG	3.9
TTAGATTTCGGGAGTGGATTAGTGCTA	1.13
GACGAGCTCAGTTTCGAGACGTGCTAG	3.99
GACGGACTGGGGCTCGGGACGTGCTAG	-0.662
TTAAGACTGGGTATCGGTTAGTGCTAG	3.51
GACGGTTTCGACTATCGAGACGTGCTA	7.88
TTAGGTATCGCTATCGGTTAGTGCTAG	4.92
GACGGTATCGACTATCGGCACGTGCTA	4.54
GAAATTTTTTTTCTAACTAAGTGCTAG	0.7
GGCGATTTCGGGACTGGAGACGTGCTA	0.0708
AGGCTTTTTTTTTTTTTTTTGTGCTAG	0.754
TTAGGACTAGGGTATCGGTTAGTGCTA	1.64
TTAGGTAACGGGACTGGGTTAGTGCTA	-0.242
TTAGATTCGAGTTTCGATTAGTGCTAG	7.71
CAACCAATCATTTTTGCTTAGTGCTAG	-0.154

Series 2
Target: Prothrombin, mature alpha-thrombin (F2, Homo sapiens, UniProt P00734)
Method: aptamer microarray, sandwich
Form: DNA with 2'F-ANA
Matrix: in vitro
Tested at: 200 nM
Setting: whole 15-mer aptamer, many near background
With: Cy3 exosite-II aptamer, 400 nM
Reading: higher = stronger binding
Sequence: GGTTGGTGTGGTTGG
Modification	mean fluorescence intensity [a.u.]
2'F-ANA at 3 5 9 10 13 15	66.8
2'F-ANA at 4 5 7 8 9 10 12 13	78.5
2'F-ANA at 2 3 4 9 10 11 12 14	209
2'F-ANA at 4 5 7 9 10 13 15	45.7
2'F-ANA at 1 3 4 7 8 10 11 13 14	65.8
2'F-ANA at 2 5 6 7 13 14	60.3
2'F-ANA at 2 3 6 8 9 13 14 15	307
2'F-ANA at 1 5 6 7 11	49.9
2'F-ANA at 2 6 7 8 9 12 13	580
2'F-ANA at 2 4 6 10 12 14 15	61.1
2'F-ANA at 1 2 4 5 6 7 12 13 14	51.1
2'F-ANA at 5 8 9 12 13 14 15	48.3
2'F-ANA at 1 2 5 7 11 14 15	44.7
2'F-ANA at 1 3 4 7 8 9 13 14 15	65.6
2'F-ANA at 1 2 5 6 7 8 13 15	57.8
2'F-ANA at 2 3 7 9 11 12 14	467
2'F-ANA at 1 3 4 5 7 8 9	69.7
2'F-ANA at 1 5 6 7 9 12 13 15	66.7
2'F-ANA at 1 2 3 4 5 10 12 13 15	45.7
2'F-ANA at 1 3 7 8 10 12	137
2'F-ANA at 3 7 8 9 10 12 13 14	381
2'F-ANA at 1 3 4 6 9 15	163

Series 3
Target: RING finger protein unkempt homolog, zinc fingers 1-6, SBP tag (UNK, Homo sapiens, UniProt Q9C0B0, residues 30-357)
UniProt Q9C0B0, sequence (30-357, looked up): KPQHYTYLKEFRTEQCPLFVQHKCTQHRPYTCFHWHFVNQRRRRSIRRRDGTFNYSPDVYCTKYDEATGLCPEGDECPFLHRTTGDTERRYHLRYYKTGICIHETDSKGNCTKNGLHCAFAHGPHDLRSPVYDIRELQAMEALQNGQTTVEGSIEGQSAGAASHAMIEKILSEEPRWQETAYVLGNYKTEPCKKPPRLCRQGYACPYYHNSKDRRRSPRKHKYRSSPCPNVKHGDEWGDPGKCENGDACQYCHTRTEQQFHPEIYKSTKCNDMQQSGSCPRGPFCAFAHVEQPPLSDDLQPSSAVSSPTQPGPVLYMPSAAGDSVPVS
Method: RNA Bind-n-Seq
Form: RNA
Matrix: in vitro
Tested at: 100 nM
Setting: RNA with constant flanks, vertebrate orthologous sites, ends assumed
Reference: input RNA pool
Reading: higher = stronger binding
Sequence	bound/input enrichment [ratio]
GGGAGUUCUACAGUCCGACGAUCACUUUUUACCUUUUUUAUCACCUCAGUGAGGUAACGUCUCCCUUGGCAUUUAGCUGGUACUGGAGCUAGUCAUUCCUAAUAAGUUUUUUUACAUUGCAUUUCUUUCACACUCAUUAUCAUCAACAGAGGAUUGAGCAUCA	2.34
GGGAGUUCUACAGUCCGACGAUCAUUCAUUUUUUAAUUUUGGUUUUAUUUUAUACAAUGUGUAGACAGCCCCUGUUCUGCAUUUAGAAGUAUACACAAUAUACAUCUGUUAAUUCUGUAAGUAAUUUUUAUAAUUAUGAUGUACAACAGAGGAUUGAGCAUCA	0.277
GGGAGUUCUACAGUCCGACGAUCCUACUGUAAACAACUCAGGGCAGUACUCUCGAUACCCUUACAGUAACCUAAAUCAGGGAUUAGUUAACAGUACAGGGAUGAAUCAGAACUUAGGCCUUACAAACAGUUCUCCAAUGAAUCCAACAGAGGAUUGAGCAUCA	0.744
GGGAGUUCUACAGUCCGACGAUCUUCAGUCACAACUGACUGGUUCACAGCAUUCCUUACAUAGUUAUCUAUCAAAUACAAGUGUAGUUAGCUUUCAGGAAACAACCAGGCAGUCAUCCUUAACCUGUAGCCCAAUUGGAGAUUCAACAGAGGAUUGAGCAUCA	1.04
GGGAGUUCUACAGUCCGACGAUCCAUUAACACACAAAAUGUCUCCAGGGGGGUAUUAGAUUUGAUUUCUUACAUAUAAAACAAACCAGCCAACCAUUUUUAAAGUAGAAGAGGGUCUCUGAUAGUAAAUGAAAUACUCUUUUUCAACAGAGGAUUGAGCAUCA	1.61
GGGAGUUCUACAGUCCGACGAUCUCUAUUACCCCCUUACUUAAAAUUACCCAAAAAAAUGAUGGCUGUUUGUUUGUUUUCAAAAUGGCUUCUCCUAUUUUUUUAUUCGUCUUGCAAAUCUCAGUUCUGUGUUGUUUGUUCAUACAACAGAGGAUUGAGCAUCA	0.528
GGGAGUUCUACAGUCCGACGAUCCAGGGGUGGCCCCAAUCCCACCUCUGUCUAUUCUGUAAACUACAACCUGUAAAUGACGUUUAGCAUUCCUAUUGUAACAAAAUUAAUUUUUAUGAAAUAAAUUAUAUUUCCUAGUCUAAUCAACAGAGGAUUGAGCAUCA	0.804
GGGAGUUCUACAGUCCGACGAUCUGCCCGUUUACCCCUAAAAUAGAACUUUUUUUAGAAUUAUAUUACCACUUCUAAAAACCUUAGCAAUAUUAGAAUAACACAUCAAUGAAAUAAAUUUUCCUCAUUGUUUUUGCAAACCAACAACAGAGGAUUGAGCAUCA	4.82
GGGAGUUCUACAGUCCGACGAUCAGAGCCCGCUCCCUGCUGCCUGCCGGGUGUGUGACUGAGGGCGGAGCACUCGCCAGCCUGCAGGGAAGCCAUAGUAUUUUUUUUUCCUGCCUCAGACUCCCCAAAGCCUUCAAGCAGAAGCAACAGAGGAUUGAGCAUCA	6.76
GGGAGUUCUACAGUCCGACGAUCUUCCAUCUUGAGUUGGCCUCAUAUCUGUGGAAGAUGUAACAUUUUGCAACAAUUGUAUUAUAUCUAGUUAAGCUGAGUUUCAUAUUUUUUUAUUAGCCUGUAAAUAAAGAUGGGGUCUUACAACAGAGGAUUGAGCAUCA	1
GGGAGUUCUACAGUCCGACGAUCCGUGCUUAUGCUCUUCUGUGAGAGAGAUGAAUUGGGAAGAACUGUCUCCGUUUUAUAGAUUAGUUUCUUUCUAAAUUAUGACCAAAAAUAUUUUGCUAUUUCUUUCUUUGUAUAUGGACACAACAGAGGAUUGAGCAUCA	0.572

Series 4
Target: RNA binding protein fox-1 homolog 2, RRM domain, GST-SBP tag (RBFOX2, Homo sapiens, UniProt O43251-10, residues 100-194)
Method: RNA Bind-n-Seq
Form: RNA
Matrix: in vitro
Tested at: 365 nM
Setting: natural RNA segment, single round, ends assumed
Reference: no-protein control
Reading: higher = stronger binding
Construct (chain): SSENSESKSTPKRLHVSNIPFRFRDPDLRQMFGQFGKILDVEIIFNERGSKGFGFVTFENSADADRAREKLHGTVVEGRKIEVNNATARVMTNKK
Sequence	RBNS enrichment (R)
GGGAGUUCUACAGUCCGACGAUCGGCACUUGUCUACAAGUGUGUCCCAACACAGUCCUGGGCCACUUUCCCCACCCUGGGGAGCACAUAAAGAAGCUUGCCAAGGGGGGCGUCCUUGCUCCCCAGUUGUCCUGUGGAAUUCUCGGGUGCCAA	0.257
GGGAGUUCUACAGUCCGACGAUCCAGAAAUAAGAACUUCAGGACCACGUGGCUUUGCAUAUACAGAGCUUAACAAGCUUUGAGAAACUCAUAAGGUUCAAGUCACCUUCAAAAGAAAGGUACAAUGGAAACACUGGAAUUCUCGGGUGCCAA	0.396
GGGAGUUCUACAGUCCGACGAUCUUUAUUAGAACACUGCAGUUGACUGAAAACAUGCAGAUGCACUGGAAGAGAACCUUGUGCUGAGGUAAUGGCCUCCCACUGCCGCCUGAGUGCUGAAAUGAGCUUGAGGUUGGAAUUCUCGGGUGCCAA	0.482
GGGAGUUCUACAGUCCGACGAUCUACCCCACGCGUGUCUGUCCCCCUCGUUCUGUAGCGUUUGUACAUAAUAAAACAAUGGAGUGGAGACGCUCAGGCUCGCGUGUAAUCCGGGAAGGGGGAGCUCAAGCGGAUGGAAUUCUCGGGUGCCAA	0.351
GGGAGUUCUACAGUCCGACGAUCCCCUCCCCAGAAACAGUGUGCAUGGGUUAUUUUGGAGUGUAGGUGACUUGUUUACUCAUUGAAGCAGAUUUCUGCUUCCUUUUAUUUUUAUAGGAAUAGAGGAAGAAAUGUGGAAUUCUCGGGUGCCAA	9.99
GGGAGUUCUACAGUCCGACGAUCCUGUGAGACAGAUGGAACCUUCACAAGGGCGCCUUUGGUUCUCUGAACAUCUCCUUUCUCUUCUUGCUUCAAUUGCUUACCCACUGCCUGCCCAGACUUUCUAUCCAGCCUGGAAUUCUCGGGUGCCAA	1.76
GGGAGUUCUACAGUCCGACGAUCUCGUACAGUUGGGAUAGGAGGCCAUUCAUUCCCAUGGGCACAGCUAACAUUAUCCCCCAGUGAUUACUUUCGAUUACACUGAAGAGACCACCUUGUCUUUAAAGAUCACUUGGAAUUCUCGGGUGCCAA	0.298
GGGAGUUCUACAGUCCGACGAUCGUUGUAAAGAAAAACAAAAACAAAAAAACAAAAACAAAAACAAAAAAAACAAAAUGGAAAAAGUCACAAAAAAGUUUGUAUAAAGACGUAUUUUUGUACUACAUGGGGACUGGAAUUCUCGGGUGCCAA	1.71
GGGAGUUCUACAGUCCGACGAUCGCAGGUGAGCUUUGCUUAUGUAGUUUGCUUUCACCAUAUAGACUGAGAGAAGAUUUCAGACUUCUUUUUCUCAGAAAGCAUGAAGAAUUUAUGAAGUAUGGAAAAGAAGCUGGAAUUCUCGGGUGCCAA	8.39
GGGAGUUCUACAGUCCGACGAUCGCCCCUCCCACCUGCACAUGUCACACUGACCACAUCUGUAGACAUCUUGAGUUGUAGCUGCAGACGGGGACCAGUGGCUCCCAUUUUCAUUUUAGCCAUUUUGUCGCCUGUGGAAUUCUCGGGUGCCAA	0.676
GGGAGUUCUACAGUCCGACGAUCGUCCUUGAAAGUGGACUGUUCUCAGGCUUGACCUGCCCCACCCCAUCCCCGCGGUUGAGGCUGUGGGGGCAGCAGAUCAGGAGCCCACUGAUAAGGGGCCCUAGGGUACAUGGAAUUCUCGGGUGCCAA	0.148
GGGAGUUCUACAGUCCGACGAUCUUCCCUGUGUAACCCCAGCCAGCAGGCCCAGCAUGGCUGCGUGCACUCAUUGCAGUCUUGUUGAACCAGGGUCCUAACCACUAACAUUGCAAUUUGCUUUGAGACCUUCCUGGAAUUCUCGGGUGCCAA	0.504
